Results pooled from the literature.
“And” joins repeats or separate records; there may be more than shown. ± gives the spread as reported. ≈ marks a conversion by molar mass, not a printed value.

CC(C)[C@H]1NC(=O)[C@H](Cc2ccccc2)NC(=O)[C@@H](Cc2c[nH]c3ccccc23)NC(=O)[C@H](CCCNC(=N)N)NC(=O)[C@@H](CCCN)NC(=O)[C@H](CC(N)=O)NC1=O  IC50 (Acanthamoeba castellanii; trophozoites): > 16 µg/mL
O=C(NC1CC1)c1ccc(N2CCOc3ccc(Cl)cc32)s1  EC50 ratio (Plasmodium falciparum; parasite growth, SYBR Green; 72 h; relative to: 3D7-E182D over 3D7): 5
COc1cc2nc(N3CCN(C(=O)C4COc5ccccc5O4)CC3)nc(N)c2cc1OC (centres unmarked)  IC50 (Plasmodium falciparum; GB4): 3.16 µM
CC(C)C[C@H]1NC(=O)[C@H]([C@@H](C)O)NC(=O)[C@@H](CCCN)NC(=O)[C@H](CCCNC(=N)N)NC(=O)[C@@H](Cc2ccccc2)NC1=O  IC90 (Naegleria fowleri; trophozoites): > 16 µg/mL
COc1ccccc1N1CCN(Cc2c(NC(C)=O)sc(C)c2C)CC1  EC50 ratio (Plasmodium falciparum; parasite growth, SYBR Green; 72 h; relative to: 3D7-E182D over 3D7): 2.5
CC(C)[C@@H]1NC(=O)[C@@H](CCCCN)NC(=O)[C@H](CCCCN)NC(=O)[C@@H](CCCN)NC(=O)[C@H](C)NC(=O)[C@H](Cc2c[nH]c3ccccc23)NC(=O)[C@@H](Cc2ccccc2)NC1=O  IC90 (Acanthamoeba castellanii; trophozoites): > 16 µg/mL
C#Cc1ccc(C=NNC(=O)c2ccc(COC)cc2)c(O)c1  FICI (Cryptococcus neoformans; H99; unit not given, together with: amphotericin B; lower = more synergy): 1.06
CC(C)[C@@H]1NC(=O)[C@@H](CCCCN)NC(=O)[C@H](CCCN)NC(=O)[C@@H](CC(=O)O)NC(=O)[C@H](C)NC(=O)[C@H](Cc2c[nH]c3ccccc23)NC(=O)[C@@H](Cc2c[nH]c3ccccc23)NC1=O  IC50 (Acanthamoeba castellanii; trophozoites): 14.8 µg/mL
Cc1ccc(CCNC2CCCc3c2[nH]c2ccc(C)cc32)cc1 (centres unmarked)  MIC fold change (Streptococcus pneumoniae; concentration not given, 10% fetal bovine serum; relative to: without serum): 4
Cc1cccc(C(=O)N2CCN(Cc3cccc(NC(=O)c4cccs4)c3)CC2)c1.O=C(O)C(F)(F)F  EC50 ratio (Plasmodium falciparum; parasite growth, SYBR Green; 72 h; relative to: 3D7-E182D over 3D7): 4.5
CCN(CC)CCO[C@H]1CC[C@@]2(C)C(=CC[C@@H]3[C@@H]2CC[C@]2(C)C(=O)CC[C@@H]32)C1  EC90 (human rotavirus; viral replication, focus reduction; MA104, Wa): 11.7 µM
CN1[C@@H]2CC[C@H]1C[C@@H](OC(=O)c1cc(Cl)cc(Cl)c1)C2  IC50 (Plasmodium falciparum; W2): 7.94 µM
Cc1cc(Cl)cc(S(C)(=O)=O)c1NC(=O)c1cc(Br)nn1-c1ncccc1Cl  mortality (Spodoptera litura; leaf-dip; third instar larvae; 6.25 ppm, 96 h): 100%
CCCCCC[C@H]1C(=O)O[C@H](C)[C@H](NC(=O)c2cccc(NC=O)c2O)C(=O)O[C@@H](C)[C@@H]1OC(=O)CC(C)C  IC50 (Human alphaherpesvirus 1; viral replication; Vero C1008): 0.023 µM
CC(C)[C@@H]1NC(=O)[C@@H](CCCCN)NC(=O)[C@H](CCCN)NC(=O)[C@@H](CC(=O)O)NC(=O)[C@H](C)NC(=O)[C@H](Cc2c[nH]c3ccccc23)NC(=O)[C@@H](Cc2ccccc2)NC1=O  IC90 (Acanthamoeba castellanii; trophozoites): > 16 µg/mL
CC1(C)S[C@@H]2[C@H](NC(=O)[C@H](N)c3ccccc3)C(=O)N2[C@H]1C(=O)O  MIC (Escherichia coli; broth microdilution; isolate IU, CTX-M-14, TEM-1; no clavulanic acid): > 200 µg/mL
C#Cc1ccc(O)c(C=NNC(=O)c2ccc(Br)cc2)c1  FICI (Cryptococcus neoformans; H99; unit not given, together with: amphotericin B; lower = more synergy): 0.7
Cn1c(=O)ccc2ccc(F)c(CCNC[C@H]3CN(c4cnc5c(n4)NC(=O)CO5)C(=O)O3)c21  MIC90 (Providencia spp.): 2 µg/mL (≈ 4.27 µM)
CC(C)[C@@H]1NC(=O)[C@@H](C(C)C)NC(=O)[C@H](C)NC(=O)[C@H](CO)NC(=O)[C@H](Cc2c[nH]c3ccccc23)NC(=O)[C@@H](Cc2ccc(O)cc2)NC(=O)[C@H](CCCN)NC(=O)[C@H](Cc2c[nH]c3ccccc23)NC1=O  IC90 (Naegleria fowleri; trophozoites): > 16 µg/mL
COc1cc(N[C@H](C(=O)c2c[nH]c3ccc(OC(F)(F)F)cc23)c2ccc(Cl)cc2OC)cc(S(C)(=O)=O)c1  inhibition (dengue virus 2; viral infection, luciferase reporter virus; 0.0003 nM, 48 h): 2.5%
NCCC[C@@H]1NC(=O)[C@@H](CCCN)NC(=O)[C@H](Cc2ccccc2)NC(=O)[C@@H](Cc2ccccc2)NC(=O)[C@H](Cc2ccccc2)NC(=O)[C@@H](CCCN)NC1=O  IC90 (Naegleria fowleri; trophozoites): > 16 µg/mL
CNC(=O)c1cc(Cl)cc(C)c1NC(=O)c1cc(Br)nn1-c1ncccc1Cl  mortality (Spodoptera litura; leaf-dip; third instar larvae; 6.25 ppm, 96 h): 100%
O=C(NN=Cc1ccc(O)c(Br)c1)c1cccc(Br)c1  FIC index (Cryptococcus neoformans; together with: caspofungin; lower = more synergistic): 1
C[C@@H](O)[C@H]1C(=O)N2C(C(=O)O)=C(S[C@@H]3CN[C@H](C(=O)N(C)C)C3)[C@H](C)[C@H]12  bacterial burden, mean (Klebsiella pneumoniae; NDM-producing, neutropenic BALB/c mouse, thigh infection, thigh; dose not given, 8 h): 8.2 log10 CFU/thigh
CCc1nc2nc(C)cc(Nc3ccc4c(c3)OCCO4)n2n1  EC50 (Plasmodium falciparum; parasite growth, SYBR Green; 3D7 DHODH E182D; 72 h): > 12.5 µM
CS(=O)(=O)CCCn1c(Cn2c(=O)n(CC(F)(F)F)c3ccncc32)cc2cc(Cl)ccc21  LS mean difference vs placebo (respiratory syncytial virus; RT-qPCR; hospitalized infants 1-24 months, nasal swab; oral, 8 mg/kg daily, day 4, cohort 6-24 months; relative to: placebo): 0.69 log10 copies/mL
CNCCC=C1c2ccccc2CCc2ccccc21  IC50 (Plasmodium falciparum; HB3): 12.6 µM
Oc1ccc(-c2nc(-c3ccc(Oc4cccc(I)c4)cc3)no2)cc1  inhibition (Clostridioides difficile; spore germination; ATCC 43255; 45 µM, 1 h): 14 to 39%
Cc1nc(Nc2ccc(C)c(Cl)c2)c2c(C)noc2n1  EC50 (Plasmodium falciparum; parasite growth): 6.32 ± 3.2 µM
CC[C@H](C)[C@H](NC(=O)CN)C(=O)NCC(=O)N[C@@H](C)C(=O)N[C@H](C(=O)N[C@@H](CC(C)C)C(=O)N[C@@H](CCCCN)C(=O)N[C@H](C(=O)N[C@@H](CC(C)C)C(=O)N[C@H](C(=O)N[C@H](C(=O)NCC(=O)N[C@@H](CC(C)C)C(=O)N1CCC[C@H]1C(=O)N[C@@H](C)C(=O)N[C@@H](CC(C)C)C(=O)N[C@H](C(=O)N[C@@H](CO)C(=O)N[C@@H](Cc1c[nH]c2ccccc12)C(=O)N[C@H](C(=O)N[C@@H](CCCCN)C(=O)N[C@@H](CCCNC(=N)N)C(=O)N[C@@H](CCCCN)C(=O)N[C@@H](CCCNC(=N)N)C(=O)N[C@@H](CCC(N)=O)C(=O)N[C@@H](CCC(N)=O)C(N)=O)[C@@H](C)CC)[C@@H](C)CC)[C@@H](C)O)[C@@H](C)O)C(C)C)C(C)C  MIC (Candida albicans; broth microdilution; SP3902, RPMI 1640-MOPS; 48 h, 30 °C): 2 µM
COCC(=O)O[C@]1(CCN(C)CCCc2nc3ccccc3[nH]2)CCc2cc(F)ccc2[C@@H]1C(C)C  IC50 (Plasmodium falciparum; D10): 7.94 µM
CN[C@H](CC(C)C)C(=O)N[C@H]1C(=O)N[C@@H](CC(N)=O)C(=O)N[C@H]2C(=O)N[C@H]3C(=O)N[C@H](C(=O)N[C@H](C(=O)O)c4cc(O)cc(O)c4-c4cc3ccc4O)[C@H](O)c3ccc(c(Cl)c3)Oc3cc2cc(c3O[C@@H]2O[C@H](CO)[C@@H](O)[C@H](O)[C@H]2O[C@H]2C[C@](C)(N)[C@H](O)[C@H](C)O2)Oc2ccc(cc2Cl)[C@H]1O  biofilm inhibition (Staphylococcus aureus; ATCC 33591 MRSA; 4×MIC): 1.81%
COC(=O)C1=CNC=C(C(=O)OC)C1c1ccc(Cl)c([N+](=O)[O-])c1  EC50 (Plasmodium falciparum; parasite growth, SYBR Green; 3D7 wild type; 72 h): 0.386 ± 0.089 µM
OC(CN1CCC(Cc2ccc(F)cc2)CC1)c1ccc(Cl)cc1 (centres unmarked)  IC50 (Plasmodium falciparum; D10): 2.51 µM
Cc1ccccc1C(=O)NN=Cc1ccc(O)c(Br)c1  MIC in combination (Cryptococcus neoformans; concentration not given, together with: fluconazole): 0.125 µg/mL
O=C(O)c1cccc(C(=O)O)n1  meropenem MIC (Pseudomonas aeruginosa; VIM-2 and OXA-50 producer; 32 µg/mL, together with: meropenem): 2 µg/mL
NC(=NCc1ccccc1)NC(=O)c1nc(Cl)c(N)nc1N  IC50 (Plasmodium falciparum; Dd2): 12.6 µM
C#Cc1ccc(O)c(C=NNC(=O)c2cc(Br)cc(Br)c2O)c1  time to complete kill (Cryptococcus neoformans; time-kill; H99; concentration not given): 3 h
CCC[C@@H]1C[C@@H](C(=O)N[C@@H]([C@H]2O[C@H](SC)[C@H](O)[C@@H](O)[C@H]2O)[C@H](C)Cl)N(C)C1  MIC90 (Staphylococcus aureus): > 32 µg/mL
O=C(O)C1=CC(=C(c2ccc(O)c(C(=O)O)c2)c2ccc(O)c(C(=O)O)c2)C=CC1=O  IC50 (Plasmodium falciparum; GB4): 7.94 µM
CC(C)C[C@@H]1NC(=O)CNC(=O)[C@@H](Cc2ccccc2)NC(=O)[C@H](CCCCN)NC(=O)[C@@H](CCCN)NC(=O)[C@@H](C(C)C)NC1=O  IC90 (Naegleria fowleri; trophozoites): > 16 µg/mL
CC(CN1c2ccccc2Sc2ccccc21)N(C)C (centres unmarked)  IC50 (Plasmodium falciparum; Dd2): 6.31 µM
CC[C@H](C)[C@H](NC(=O)[C@H](C)NC(=O)[C@H](CCCCN)NC(=O)[C@H](CC(C)C)NC(=O)[C@H](C)NC(=O)[C@@H](NC(=O)[C@H](Cc1c[nH]cn1)NC(=O)[C@H](CC(C)C)NC(=O)[C@@H](NC(=O)[C@@H](NC(=O)[C@H](CCCCN)NC(=O)[C@H](C)NC(=O)[C@H](C)NC(=O)[C@H](CO)NC(=O)[C@H](CCCCN)NC(=O)[C@H](Cc1ccccc1)NC(=O)[C@@H](NC(=O)[C@H](CCCCN)NC(=O)[C@H](CC(C)C)NC(=O)[C@H](Cc1ccccc1)NC(=O)[C@H](CO)NC(=O)[C@H](CCCCN)NC(=O)[C@H](Cc1c[nH]c2ccccc12)NC(=O)[C@H](CCCCN)NC(C)=O)[C@@H](C)O)[C@@H](C)O)C(C)C)[C@@H](C)O)C(=O)N[C@@H](CO)C(=O)N[C@@H](CO)C(N)=O  MIC range (Klebsiella pneumoniae; ATCC 1706): 2 µg/mL (≈ 0.682 µM)
Nc1ncnc2c1ncn2[C@@H]1O[C@@H]2COP(=O)(O)O[C@H]3[C@@H](O)[C@H](n4cnc5c(=O)[nH]cnc54)O[C@@H]3COP(=O)(O)O[C@H]2[C@H]1O  fold enrichment (West Nile virus; RNA sequencing Reactome analysis, refers to: Cell-extracellular matrix interactions (R-HSA-446353); HFF-1; concentration not given, downregulated pathways, together with: West Nile virus infection; relative to: WNV-infected without compound): 20.9
CN(C)c1nc(NCc2cccc(C(F)(F)F)c2)c(/N=N/c2ccc(Cl)cc2)c(N(C)C)n1  mortality (Ostrinia furnacalis; leaf dipping; 500 mg/L, 96 h): 100%
COC(=O)c1cccc(C#CCCOCCCCCCNC[C@H](O)c2cc(Cl)c(N)c(Cl)c2)c1  EC50 (Plasmodium falciparum; parasite growth, SYBR Green; 3D7 DHODH E182D; 72 h): 1.41 ± 0.76 µM
COC(=O)N[C@H](C(=O)N1CCC[C@H]1c1ncc(-c2ccc(-c3ccc(-c4cnc([C@@H]5CCCN5C(=O)[C@@H](NC(=O)OC)C(C)C)[nH]4)cc3)cc2)[nH]1)C(C)C  combination index (hepatitis C virus; HCV replicon; 50% effect level, together with: IFN-α, ratio 1:2.5): 1.11 and 0.76 and 1
CCC(c1ccccc1)c1nn2c(-c3cccs3)nnc2s1 (centres unmarked)  EC50 ratio (Plasmodium falciparum; parasite growth, SYBR Green; 72 h; relative to: 3D7-E182D over 3D7): 2.9
Cc1c2c(nn1C)CSCc1cc(n(C)n1)CSc1cc(c3ccccc3c1)OCCCc1c(C(=O)O)n(C)c3c-2c(Cl)ccc13  protein level fold change (Staphylococcus aureus; label-free proteomics, refers to: tdcB; SA113; concentration not given; relative to: untreated): 0.0385
NCc1ccc(-c2nc(-c3ccc(OC4CCC4)cc3)no2)cc1  inhibition (Clostridioides difficile; spore germination; ATCC 43255; 45 µM, 1 h): 12 to 33%

Repeated from above:
CC(C)[C@@H]1NC(=O)[C@@H](CCCCN)NC(=O)[C@H](CCCN)NC(=O)[C@@H](CC(=O)O)NC(=O)[C@H](C)NC(=O)[C@H](Cc2c[nH]c3ccccc23)NC(=O)[C@@H](Cc2ccccc2)NC1=O  IC90 (Acanthamoeba castellanii; trophozoites): > 16 µg/mL
CC1(C)S[C@@H]2[C@H](NC(=O)[C@H](N)c3ccccc3)C(=O)N2[C@H]1C(=O)O  MIC (Escherichia coli; broth microdilution; isolate IU, CTX-M-14, TEM-1; no clavulanic acid): > 200 µg/mL
C#Cc1ccc(O)c(C=NNC(=O)c2ccc(Br)cc2)c1  FICI (Cryptococcus neoformans; H99; unit not given, together with: amphotericin B; lower = more synergy): 0.7
Cn1c(=O)ccc2ccc(F)c(CCNC[C@H]3CN(c4cnc5c(n4)NC(=O)CO5)C(=O)O3)c21  MIC90 (Providencia spp.): 2 µg/mL (≈ 4.27 µM)
CC(C)[C@@H]1NC(=O)[C@@H](C(C)C)NC(=O)[C@H](C)NC(=O)[C@H](CO)NC(=O)[C@H](Cc2c[nH]c3ccccc23)NC(=O)[C@@H](Cc2ccc(O)cc2)NC(=O)[C@H](CCCN)NC(=O)[C@H](Cc2c[nH]c3ccccc23)NC1=O  IC90 (Naegleria fowleri; trophozoites): > 16 µg/mL
COc1cc(N[C@H](C(=O)c2c[nH]c3ccc(OC(F)(F)F)cc23)c2ccc(Cl)cc2OC)cc(S(C)(=O)=O)c1  inhibition (dengue virus 2; viral infection, luciferase reporter virus; 0.0003 nM, 48 h): 2.5%
